Measurements collected from several papers.
Several values in a cell are separate wells, animals, samples, runs or records. ± gives the spread as reported.
Chain of UniProt O00425 (whole entry, looked up): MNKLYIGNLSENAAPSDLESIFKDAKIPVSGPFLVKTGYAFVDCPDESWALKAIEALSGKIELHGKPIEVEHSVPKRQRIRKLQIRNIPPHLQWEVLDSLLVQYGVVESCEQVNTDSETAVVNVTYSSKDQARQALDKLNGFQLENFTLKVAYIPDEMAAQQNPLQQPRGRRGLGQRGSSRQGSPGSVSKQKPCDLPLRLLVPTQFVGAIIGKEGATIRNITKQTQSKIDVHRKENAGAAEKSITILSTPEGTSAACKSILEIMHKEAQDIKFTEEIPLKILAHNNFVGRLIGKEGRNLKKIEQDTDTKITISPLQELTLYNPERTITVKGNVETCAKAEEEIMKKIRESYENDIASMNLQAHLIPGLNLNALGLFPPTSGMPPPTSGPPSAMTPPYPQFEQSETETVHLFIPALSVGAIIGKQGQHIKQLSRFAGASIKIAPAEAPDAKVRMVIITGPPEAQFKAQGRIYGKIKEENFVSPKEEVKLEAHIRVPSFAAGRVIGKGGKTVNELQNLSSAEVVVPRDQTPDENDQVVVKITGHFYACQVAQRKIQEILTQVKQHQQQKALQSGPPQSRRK

Under HPTS leakage, CCC(=O)C[C@@H](O)C[C@@H](C)C[C@H](NC(=O)[C@@H]1C[C@H](C)CN1C(=O)/C=C/[C@@H](C)CC)C(=O)N[C@H](C(=O)NC(C)(C)C(=O)N[C@@H](CC(C)C)C(=O)N[C@@H](CC(C)C)C(=O)NC(C)(C)C(=O)NC(C)(C)C(=O)NCCC(=O)N[C@@H](C)CN(C)C)[C@H](O)C(C)C is recorded as “inactive” (giant unilamellar vesicles; 1 µM).
For COc1cc(Nc2ncc(F)c(Nc3ccc4c(n3)NC(=O)C(C)(C)O4)n2)cc(OC)c1OC, the IC50 was greater than 10 µM (Prothrombin (F2, Homo sapiens, UniProt P00734)).
C[C@H](NC(=O)c1c(C(F)F)nn(C)c1Oc1cccc(C(F)(F)F)c1)c1ccc(C(=O)O)cc1: “median progression-free survival” 1.3 months (human, advanced tumours; 750 mg).
Under “z-scored log2 fold change”, CN(CC(=O)O)C(=N)NP(=O)(O)O is recorded as 0.204 (binding, equilibrium dialysis LC-MS; 5 µM, thermostabilized A2AR-BRIL construct; reference: no-protein control, direction not given).
Under “log2 fold change”, CC[C@H](C)[C@@H]1NC(=O)[C@@H]2CCCN2C(=O)[C@H](CC(C)C)NC(=O)[C@H](CC(C)C)NC(=O)CNC(=O)[C@@H](NC(=O)[C@@H](NC(=O)[C@H](CC(=O)O)NC(=O)CNC(=O)[C@@H](NC(=O)[C@H](C)NC(=O)CNC(=O)[C@H](CCCCN)NC(=O)[C@H](CC(C)C)NC(=O)[C@H](CC(C)C)NC(=O)[C@H](CCCCN)NC(=O)CNC(=O)[C@@H](NC(=O)[C@@H](N)CC(C)C)C(C)C)C(C)C)C(C)C)CSSC[C@@H](C(=O)O)NC1=O is recorded as -0.924 (RNA-seq, measured: H3f3a mRNA; mouse traumatic brain injury, frontal cortex and hippocampus; dose not given; reference: TBI plus compound vs TBI).
The IC50 of CC(C)[C@H](NC(=O)[C@@H](N)CCCCN)C(=O)N[C@@H](CC(=O)O)C(=O)N1CCC[C@H]1C(=O)N[C@@H](CCCCN)C(=O)N[C@@H](Cc1ccccc1)C(=O)N[C@H](C(=O)N[C@@H](CO)C(=O)N[C@@H](Cc1ccccc1)C(=O)O)[C@@H](C)O is reported as 19.2 µM (HLA class I histocompatibility antigen, A alpha chain, allele A*24:02 (Homo sapiens, UniProt P04439); binding).
CN1CCN(S(=O)(=O)c2cc([N+](=O)[O-])ccc2N(CCOS(C)(=O)=O)CCOS(C)(=O)=O)CC1: “EFS ratio (T/C)” 13.2 (NSG mice, sample CA PDX; intraperitoneal, 25 mg/kg weekly x3; reference: treated over vehicle).
The maximum fusion of CC(C)CCCCCCCCC[C@@H]1CC(=O)N[C@@H](CCC(=O)O)C(=O)N[C@@H](CC(C)C)C(=O)N[C@H](CC(C)C)C(=O)N[C@@H](C(C)C)C(=O)N[C@@H](CC(=O)O)C(=O)N[C@H](CC(C)C)C(=O)N[C@@H](CC(C)C)C(=O)O1 is reported as 63 ± 12% (calcein leakage; DOPC/DOPG/CHOL liposomes; concentration not given, added: 20 wt% PEG-8000).
CNC(=O)CC1C(=O)N(C2CCN(C3CCC(C(C)C)CC3)CC2)c2ccccc21 (stereo not shown) — result for “urine flow rate”: “increased” (conscious Sprague-Dawley rat; intravenous bolus, 100 nmol/kg).
CCCCC1(CCCC)CN(c2ccccc2)c2cc(SC)c(OCC(=O)N[C@@H](C(=O)NCC(=O)O)c3ccccc3)cc2S(=O)(=O)C1 gave a serum LDL-C of 106 mg/dL (measured: LDL cholesterol; human, serum; 2.5 mg once daily, day 5).
N.N.[Cl][Pt][Cl] — result for protein expression: “decreased” (western blot, measured: GLUL, CPS1, GGT1, SLC1A5; SGC-7901 resistant to compound, BALB/c nude mouse xenograft, tumour tissue; dose not given, 21 days; reference: vehicle).
For CN(C)C1(CNC(=O)c2ccc3c(c2)CCN3C(=O)c2ccccc2)CCOCC1, “reduction of cold allodynia” read 59% (acetone test; mice, chronic constriction injury; intraperitoneal, 50 mg/kg, 2 h).
For Cc1nc(Nc2ccc(CC(=O)O)cc2)nc(Nc2ccc(F)c(C(F)(F)F)c2)c1C, adipocyte area read “decreased” (C57BL/6J mouse, high-fat diet MASH model, white adipose tissue; intraperitoneal, 0.3 mg/kg daily, 60% fat diet for 12 weeks, dosed final four weeks; reference: untreated).
For CCCCCCCCCCCCCCCC(=O)N[C@H]1C[C@@H](O)[C@@H](O)NC(=O)[C@@H]2[C@@H](O)[C@@H](C)CN2C(=O)[C@H]([C@@H](C)O)NC(=O)[C@H]([C@H](O)[C@@H](O)c2ccc(O)cc2)NC(=O)[C@@H]2C[C@@H](O)CN2C(=O)[C@H]([C@@H](C)O)NC1=O, the maximum fusion was 9 ± 3% (calcein leakage; DOPC/CHOL liposomes; concentration not given, added: 20 wt% PEG-8000).
C[C@]12CC[C@H](O)C[C@H]1CC[C@@H]1[C@@H]2CC[C@]2(C)[C@@H](c3ccc(=O)oc3)CC[C@]12O gave a tumour volume of 84.7 mm3 and 67.4 mm3 and 86.6 mm3 and 62.2 mm3 and 82.9 mm3 and 87.3 mm3 and 80.6 mm3 (female nude mouse LCC2 xenograft; 0.5 mg/kg, day 13, tamoxifen-resistant).
CC(C)C[C@H](NC(=O)[C@H](CCC(N)=O)NC(=O)[C@H](CCCNC(=N)N)NC(=O)[C@H](CO)NC(=O)[C@H](Cc1ccc(O)cc1)NC(=O)[C@H](CC(C)C)NC(=O)[C@@H](N)CCCNC(=N)N)C(=O)N[C@@H](Cc1c[nH]cn1)C(=O)N[C@@H](Cc1ccccc1)C(=O)O has an IC50 of 0.539 µM (HLA class I histocompatibility antigen, A alpha chain, allele A*02:01 (Homo sapiens, UniProt P04439); binding).
CNC(=O)c1c(C)oc2cc(Oc3ccnc4cc(OCCN5CCOCC5)ccc34)ccc12: “patients with vascular response” 36% (DCE-MRI; patients; dose not given, once daily dosing).
COc1cc2c(Oc3ccc4[nH]c(C)cc4c3F)ccnc2cc1OCC1(N)CC1 — result for “grade 1 or 2 Thrombocytopenia”: 23.5% (paediatric recurrent refractory sarcoma; concentration not given, whole group).
Clc1cc2c(cc1Cl)Oc1cc(Cl)c(Cl)cc1O2 — result for LTE4 level: “no effect” (female Sprague-Dawley rat, liver; dose not given; reference: vehicle).
Under “mean serum uric acid”, CCCc1nn(C)c2c(=O)[nH]c(-c3cc(S(=O)(=O)N4CCN(C)CC4)ccc3OCC)nc12 is recorded as 6.84 mg/dL (human patients on drug, serum or plasma; dose not given, main analysis, matching 1:5; reference: off-drug patients, 5.94 mg/dL).
The protein level of C[C@H]1O[C@@H](O[C@H]2CC[C@@]3(C)[C@@H](CC[C@]4(C)[C@@H]3C=C[C@]35OC[C@@]6(CCC(C)(C)C[C@H]63)[C@@H](O)C[C@]54C)[C@]2(C)CO)[C@H](O)[C@@H](O[C@@H]2O[C@H](CO)[C@@H](O)[C@H](O)[C@H]2O)[C@H]1O is reported as 0.47 and 0.618 and 0.751 (Western blot, measured: mTOR; mouse, AAV8-TBG-Null control vector, liver; dose not given, high dose, unit not given, added: ethanol; reference: β-actin).
CC(=O)c1c(C)c2cnc(Nc3ccc(C4CCN(CCS(C)(=O)=O)CC4)cn3)nc2n(C2CCCC2)c1=O has a T/C of 40% (mouse SW-620 xenograft; oral, 80 mg/kg twice daily, 20 days).
CC(C)(O)c1cnc2ncc(-c3ccc(F)c(-c4c(F)cccc4C#N)c3)n2n1 — result for “minimum effective dose”: 1 mg/kg (food-maintained responding; rhesus monkey; intramuscular, acute dependence model, added: midazolam pretreatment 30 min; reference: midazolam alone).
COc1ccc(N2C(=O)N(c3c(C)cccc3Cl)Cc3cnc(Nc4ccc(C5CCN(C)CC5)cc4OC)nc32)nc1 gave an inhibition of 25% (FLT3 (Homo sapiens, UniProt P36888); kinase activity; 0.5 µM).
C[C@H]1CN(c2n[nH]c3nc(N[C@H]4CC[C@H](NS(=O)(=O)CCC(F)(F)F)CC4)ncc23)CCO1 has a relative abundance of 1.46 (IGF2BP3 (Homo sapiens, UniProt O00425); inhibitor, Kinobeads competition profiling; 0.8 µM; reference: vehicle).
[131I-].[Na+] — result for “patients with recurrence”: roughly 2.8% (hyperthyroidism patients; 185 MBq, long-term follow-up).
For CO[C@H]1C[C@@H]2CC[C@@H](C)[C@@](O)(O2)C(=O)C(=O)N2CCCC[C@H]2C(=O)O[C@H]([C@H](C)C[C@@H]2CC[C@@H](OC(=O)NCCOCCOCCOCCOCCOCCOCCOCCOCCC(=O)N3CCc4cc(Cn5nc(-c6ccc7oc(N)nc7c6)c6c(N)ncnc65)ccc4C3)[C@H](OC)C2)C[C@@H](O)[C@H](C)/C=C(\C)[C@@H](O)[C@@H](OC)C(=O)[C@H](C)C[C@H](C)/C=C/C=C/C=C/1C, the TRAE incidence was 16.7% (phase 1 dose escalation, measured: headache; advanced solid tumour patients; intravenous, 12 mg weekly, any grade).
Cc1cn(-c2cc(NC(=O)c3ccc(C)c(Nc4nccc(-c5cccnc5)n4)c3)cc(C(F)(F)F)c2)cn1: “mean difference in change” 0 (measured: NPI caregiver distress score; human; dose not given, between 12 and 6 months, unit not given; reference: placebo).
